Experimental data gathered from unrelated publications.
Each line is one published result; not all experiments were run side by side. ± marks the error that the study gave. Converted amounts (≈) assume the structure as drawn.
UniProt P04843, sequence (whole entry, looked up): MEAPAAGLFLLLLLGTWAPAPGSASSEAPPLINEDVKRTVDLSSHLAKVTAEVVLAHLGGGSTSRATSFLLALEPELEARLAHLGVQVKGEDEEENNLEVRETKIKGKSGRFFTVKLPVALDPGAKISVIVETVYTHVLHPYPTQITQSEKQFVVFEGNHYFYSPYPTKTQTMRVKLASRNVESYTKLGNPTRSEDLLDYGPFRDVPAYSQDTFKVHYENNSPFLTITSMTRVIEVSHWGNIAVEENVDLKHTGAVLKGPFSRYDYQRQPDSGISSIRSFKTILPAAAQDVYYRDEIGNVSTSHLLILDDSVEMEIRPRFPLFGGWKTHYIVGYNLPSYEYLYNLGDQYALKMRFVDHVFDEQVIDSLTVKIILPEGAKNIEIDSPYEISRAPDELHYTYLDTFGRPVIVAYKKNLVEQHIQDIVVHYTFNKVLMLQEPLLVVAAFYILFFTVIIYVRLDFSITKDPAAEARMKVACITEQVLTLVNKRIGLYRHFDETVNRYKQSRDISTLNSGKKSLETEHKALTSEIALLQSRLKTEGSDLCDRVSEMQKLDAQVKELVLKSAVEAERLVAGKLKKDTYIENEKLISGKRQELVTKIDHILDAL

Structure (SMILES) | target or system | test | test system | conditions | how to read | endpoint | value
Fc1ccc(C(OCCCc2c[nH]cn2)c2ccc(F)cc2)cc1 | Plasmodium falciparum | – | W2 | – | – | IC50 | 631 nM
CC(C)C[C@H](NC(=O)[C@H](CCC1CCCCC1)NC(=O)[C@@H]1CCCN1C(=O)c1ccc(F)cc1)C(=O)NC(C)(C)C(=O)N[C@@H](CC(C)C)C(=O)N[C@@H](CC(C)C)C(=O)NC(C)(C)C(=O)NC(C)(C)C(=O)NCCC(=O)NC1(CN(C)C)CCC1 | – | – | negatively charged GUVs | 1 µM | – | leakage | > 90%
CC[C@H](C)[C@@H]1NC(=O)[C@H](Cc2ccc(O)cc2)NC(=O)[C@H](CC(=O)O)NC(=O)CCc2cccc3c2Oc2c(cccc2-3)CCNC(=O)[C@H](CC(=O)O)NC(=O)[C@H](CC(=O)O)NC(=O)[C@H](CCCCN)NC1=O | – | – | DBA/1 mice, collagen-induced arthritis | intravenous, 1 mg/kg, 5 doses every other day, 22 days | reference: untreated control | arthritis score | decreased
C=CCNc1c(O)cc2c(O)c1C[C@@H](C)C[C@H](OC)[C@H](O)[C@@H](C)/C=C(\C)[C@H](OC(N)=O)[C@@H](OC)/C=C\C=C(/C)C(=O)N2 | – | – | patients with STS, GIST or other tumours | dose not given | – | median progression-free survival | 9.1 weeks
COC(=O)c1c(-c2cc(OC)c(OC)c(OC)c2)c2ccc(OCc3ccccn3)cc2c(=O)n1-c1ccc(N)cc1 | Plasmodium falciparum | – | HB3 | – | – | IC50 | 2510 nM
Cc1ccc2cc(N3CCC4(O)C(=O)c5cc(C)c(C)cc5N=C34)ccc2n1 (stereo not shown) | – | methamphetamine place preference | mouse | intraperitoneal | – | lowest effective dose | 0.5 mg/kg
N=C(N)NCCC[C@H](NC(=O)CCCCCNC(=O)[C@H](CCCNC(=N)N)NC(=O)[C@H](CCCNC(=N)N)NC(=O)CCCCCNC(=O)[C@H](CCCNC(=N)N)NC(=O)[C@H](CCCNC(=N)N)NC(=O)CCCCCNC(=O)[C@H](CCCNC(=N)N)NC(=O)[C@H](CCCNC(=N)N)NC(=O)CCCCCNC(=O)[C@@H](N)CCCNC(=N)N)C(=O)NCCCCCC(=O)NCCC(=O)O | – | broth microdilution | ATCC 43300 resistant strain, Mueller-Hinton broth | – | – | MIC | 24 µM (≈ 45.7 µg/mL)
C[C@]1(CO)Cc2ncn(-c3ccc(C#N)c(Cl)c3)c2C(=O)O1 | – | – | human | 20 mg single dose | – | urinary sodium excretion Ae(0-24h) | 289 mmol
Oc1cc(Br)cc(Br)c1Oc1ccc(Br)cc1Br | – | glucuronidation | human liver microsomes | – | – | Vmax/Km | 83.3 ± 24.4 µL/min/mg
CC[C@H](C)[C@@H]1NC(=O)[C@@H]2CCCN2C(=O)[C@H](CC(C)C)NC(=O)[C@H](CC(C)C)NC(=O)CNC(=O)[C@@H](NC(=O)[C@@H](NC(=O)[C@H](CC(=O)O)NC(=O)CNC(=O)[C@@H](NC(=O)[C@H](C)NC(=O)CNC(=O)[C@H](CCCCN)NC(=O)[C@H](CC(C)C)NC(=O)[C@H](CC(C)C)NC(=O)[C@H](CCCCN)NC(=O)CNC(=O)[C@@H](NC(=O)[C@@H](N)CC(C)C)C(C)C)C(C)C)C(C)C)CSSC[C@@H](C(=O)O)NC1=O | – | RNA-seq, refers to: Themis mRNA | mouse traumatic brain injury, frontal cortex and hippocampus | dose not given | reference: TBI plus compound vs TBI | log2 fold change | -3.76
C[C@H]1CN(c2n[nH]c3nc(N[C@H]4CC[C@H](NS(=O)(=O)CCC(F)(F)F)CC4)ncc23)CCO1 | Dolichyl-diphosphooligosaccharide--protein glycosyltransferase subunit 1 (Homo sapiens, UniProt P04843) | Kinobeads competition, refers to: RPN1 | – | 0.16 µM, unit not given | reference: vehicle | remaining binding | 0.94
c1cncc([C@@H]2CCCN2)c1 | – | drug discrimination acquisition | drug-naive rat | 5 mg/kg, versus beta-nicotine | – | drug-lever responding | 33%
CCCCC1(CCCC)CN(c2ccccc2)c2cc(SC)c(OCC(=O)N[C@@H](C(=O)NCC(=O)O)c3ccccc3)cc2S(=O)(=O)C1 | – | – | human | 5 mg once daily, 120 h | – | serum LDL cholesterol | 109 mg/dL

Repeated from above:
Structure (SMILES) | target or system | test | test system | conditions | how to read | endpoint | value
c1cncc([C@@H]2CCCN2)c1 | – | drug discrimination acquisition | drug-naive rat | 5 mg/kg, versus beta-nicotine | – | drug-lever responding | 33%
CCCCC1(CCCC)CN(c2ccccc2)c2cc(SC)c(OCC(=O)N[C@@H](C(=O)NCC(=O)O)c3ccccc3)cc2S(=O)(=O)C1 | – | – | human | 5 mg once daily, 120 h | – | serum LDL cholesterol | 109 mg/dL
